{"data": "Measured values collected from several papers", "note": "Compare with care: the assays were run in different laboratories. ± gives the spread as reported.", "chain of UniProt P41143 (whole entry, looked up)": "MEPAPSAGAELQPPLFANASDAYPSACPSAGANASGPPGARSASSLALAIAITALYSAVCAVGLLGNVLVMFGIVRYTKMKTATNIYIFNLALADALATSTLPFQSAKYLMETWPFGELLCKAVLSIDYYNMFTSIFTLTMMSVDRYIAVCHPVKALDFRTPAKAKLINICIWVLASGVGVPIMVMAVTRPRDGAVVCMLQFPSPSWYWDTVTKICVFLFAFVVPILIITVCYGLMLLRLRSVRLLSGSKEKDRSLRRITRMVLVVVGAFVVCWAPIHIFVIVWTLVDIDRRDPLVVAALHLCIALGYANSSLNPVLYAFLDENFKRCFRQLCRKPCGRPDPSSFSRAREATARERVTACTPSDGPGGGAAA", "chain of UniProt P43220 (whole entry, looked up)": "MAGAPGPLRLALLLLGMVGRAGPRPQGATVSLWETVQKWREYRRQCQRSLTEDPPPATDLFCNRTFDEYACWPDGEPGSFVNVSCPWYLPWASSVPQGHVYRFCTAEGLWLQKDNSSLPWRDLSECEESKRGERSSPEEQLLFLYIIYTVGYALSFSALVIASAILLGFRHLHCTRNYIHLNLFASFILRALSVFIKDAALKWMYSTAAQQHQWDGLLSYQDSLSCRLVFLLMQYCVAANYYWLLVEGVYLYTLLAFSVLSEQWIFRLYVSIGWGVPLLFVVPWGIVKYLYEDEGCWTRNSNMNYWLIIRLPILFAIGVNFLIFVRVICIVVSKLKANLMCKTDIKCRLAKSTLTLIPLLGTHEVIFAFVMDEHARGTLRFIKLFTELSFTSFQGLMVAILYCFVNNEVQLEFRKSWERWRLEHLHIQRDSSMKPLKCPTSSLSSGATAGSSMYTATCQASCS", "chain of UniProt Q12809 (whole entry, looked up)": "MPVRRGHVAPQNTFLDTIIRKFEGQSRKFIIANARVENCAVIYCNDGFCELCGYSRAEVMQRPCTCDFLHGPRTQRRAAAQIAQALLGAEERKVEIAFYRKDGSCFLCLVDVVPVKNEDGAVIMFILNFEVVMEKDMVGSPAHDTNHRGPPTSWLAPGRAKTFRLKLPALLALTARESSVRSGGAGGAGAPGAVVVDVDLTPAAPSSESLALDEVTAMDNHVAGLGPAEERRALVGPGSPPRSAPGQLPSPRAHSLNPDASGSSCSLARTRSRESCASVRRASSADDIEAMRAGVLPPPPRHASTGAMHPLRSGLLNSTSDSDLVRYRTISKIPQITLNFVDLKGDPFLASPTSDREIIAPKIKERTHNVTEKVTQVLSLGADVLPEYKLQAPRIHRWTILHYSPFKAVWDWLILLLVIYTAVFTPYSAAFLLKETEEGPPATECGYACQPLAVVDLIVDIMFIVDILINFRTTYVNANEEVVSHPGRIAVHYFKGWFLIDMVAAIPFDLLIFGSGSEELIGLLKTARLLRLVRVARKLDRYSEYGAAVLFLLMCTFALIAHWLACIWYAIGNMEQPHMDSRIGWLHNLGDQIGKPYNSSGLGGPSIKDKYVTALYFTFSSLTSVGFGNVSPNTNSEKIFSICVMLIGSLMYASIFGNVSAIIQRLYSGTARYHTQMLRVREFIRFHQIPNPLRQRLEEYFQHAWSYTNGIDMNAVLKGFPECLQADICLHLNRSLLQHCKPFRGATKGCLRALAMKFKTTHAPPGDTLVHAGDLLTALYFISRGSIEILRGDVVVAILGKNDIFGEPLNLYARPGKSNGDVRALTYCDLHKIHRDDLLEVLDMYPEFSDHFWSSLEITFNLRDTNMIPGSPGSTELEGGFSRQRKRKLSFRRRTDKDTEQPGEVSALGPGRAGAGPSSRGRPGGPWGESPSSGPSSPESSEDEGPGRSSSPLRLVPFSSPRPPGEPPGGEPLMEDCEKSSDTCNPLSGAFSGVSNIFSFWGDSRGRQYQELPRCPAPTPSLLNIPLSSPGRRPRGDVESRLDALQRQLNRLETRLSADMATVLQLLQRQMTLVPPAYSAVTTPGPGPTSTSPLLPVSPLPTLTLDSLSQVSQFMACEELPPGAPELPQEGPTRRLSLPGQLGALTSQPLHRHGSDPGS"}
{"Compound": "Cc1cc(O)cc(C)c1C[C@H](N)C(=O)NCC(=O)NCC(=O)N[C@@H](Cc1ccccc1)C(=O)N[C@H](C(=O)NCC(=O)N[C@@H](C)C(=O)N[C@@H](CCCNC(=N)N)C(=O)N[C@@H](CCCCN)C(=O)N[C@@H](CO)C(=O)N[C@@H](C)C(=O)N[C@@H](CCCNC(=N)N)C(=O)N[C@@H](CCCCN)C(N)=O)[C@@H](C)O", "tested on": "Delta-type opioid receptor (OPRD1, Homo sapiens, UniProt P41143)", "assay": "ligand displacement, radioligand", "setting": "cell membranes", "quantity": "Ki", "result": "0.102 nM"}
{"Compound": "CC[C@H](C)[C@H](NC(=O)[C@H](CCCCN)NC(=O)[C@H](CCCCN)NC(=O)[C@H](CC(C)C)NC(=O)[C@H](Cc1c[nH]c2ccccc12)NC(=O)CN)C(=O)NCC(=O)N[C@@H](CCCCN)C(=O)N[C@@H](CCCCN)C(=O)N[C@H](C(=O)N[C@@H](CCC(=O)O)C(=O)N[C@@H](CCCNC(=N)N)C(=O)N[C@H](C(=O)NCC(=O)N[C@@H](CCC(N)=O)C(=O)N[C@@H](Cc1c[nH]cn1)C(=O)N[C@H](C(=O)N[C@@H](CCCNC(=N)N)C(=O)N[C@@H](CC(=O)O)C(=O)N[C@@H](C)C(=O)N[C@H](C(=O)N[C@H](C(=O)N[C@@H](CCC(N)=O)C(=O)N[C@H](C(=O)N[C@H](C(=O)NCC(=O)N[C@H](C(=O)N[C@@H](C)C(=O)N[C@@H](CCC(N)=O)C(=O)N[C@@H](CCC(N)=O)C(=O)N[C@@H](C)C(=O)N[C@@H](C)C(=O)N[C@@H](CC(N)=O)C(=O)N[C@H](C(=O)N[C@@H](C)C(=O)N[C@@H](C)C(=O)N[C@H](C(=O)N[C@@H](CC(C)C)C(=O)N[C@@H](CCCCN)C(N)=O)[C@@H](C)O)C(C)C)C(C)C)[C@@H](C)CC)[C@@H](C)O)[C@@H](C)CC)[C@@H](C)O)[C@@H](C)O)C(C)C)[C@@H](C)CC", "tested on": "Voltage-gated inwardly rectifying potassium channel KCNH2 (KCNH2, Homo sapiens, UniProt Q12809)", "assay": "potassium current, automated patch clamp", "quantity": "highest inactive concentration", "result": "> 30 µM"}
{"Compound": "COc1ccc(-c2oc3c(CC=C(C)C)c(O[C@@H]4O[C@H](CO)[C@@H](O)[C@H](O)[C@H]4O)cc(O)c3c(=O)c2O[C@@H]2O[C@@H](C)[C@H](O)[C@@H](O)[C@H]2O[C@@H]2O[C@@H](C)[C@H](O)[C@@H](O)[C@H]2O)cc1", "tested on": "HEK293T", "assay": "entry of SARS-CoV-2 spike pseudotyped lentivirus", "setting": "10 µM", "quantity": "inhibition", "result": "50 to 90%"}
{"Compound": "O=C(NNC(=S)Nc1ccc(C(F)(F)F)cc1)c1ccccn1", "tested on": "Huh-7", "assay": "pseudovirus entry", "setting": "added: MERS-CoV spike pseudovirus", "quantity": "EC50", "result": "910 nM"}
{"Compound": "CCCCCCCCCCCCCCCC(=O)N[C@@H](CCC(=O)NCCOCCOCCC(=O)NCCOCCOCCC(=O)NCCCC[C@H](NC(=O)[C@H](CC(=O)O)NC(=O)[C@H](CC(C)C)NC(=O)[C@H](Cc1ccc(O)cc1)NC(=O)[C@H](CCCCN)NC(=O)[C@H](CO)NC(=O)[C@H](Cc1ccc(O)cc1)NC(=O)[C@H](CC(=O)O)NC(=O)[C@H](CO)NC(=O)[C@@H](NC(=O)[C@H](Cc1ccccc1)NC(=O)[C@@H](NC(=O)CNC(=O)[C@H](CCC(N)=O)NC(=O)[C@@H](CO)NC(=O)[C@@H](N)Cc1c[nH]cn1)[C@@H](C)O)[C@@H](C)O)C(=O)N[C@@H](CCCNC(=N)N)C(=O)N[C@@H](CCCNC(=N)N)C(=O)N[C@@H](C)C(=O)N[C@@H](CCC(N)=O)C(=O)N[C@@H](CC(=O)O)C(=O)N[C@@H](Cc1ccccc1)C(=O)N[C@H](C(=O)N[C@@H](CCC(N)=O)C(=O)N[C@@H](Cc1c[nH]c2ccccc12)C(=O)N[C@@H](CC(C)C)C(=O)N[C@@H](CC(C)C)C(=O)N[C@@H](CC(N)=O)C(=O)N[C@H](C(=O)NCC(=O)NCC(=O)N1CCC[C@H]1C(=O)N[C@@H](CO)C(=O)N[C@@H](CO)C(=O)NCC(=O)N[C@@H](C)C(=O)N1CCC[C@H]1C(=O)N1CCC[C@H]1C(=O)N1CCC[C@H]1C(=O)N[C@@H](CO)C(N)=O)[C@@H](C)O)C(C)C)C(=O)O", "system": "Sprague-Dawley rat, female", "setting": "subcutaneous, 500 µg/kg once daily, 14 days", "quantity": "urea", "result": "3.73 ± 0.95 mmol/L"}
{"Compound": "Cc1cccc(NC(=O)CSc2c[nH]c3ccccc23)c1", "tested on": "HEK293T", "assay": "Gaussia luciferase expression", "setting": "up to 10 µM, 24 h, without RdRp", "quantity": "reporter expression", "result": "no effect"}
{"Compound": "CSCC[C@@H]1NC(=O)CNC(=O)[C@H](CCC(=O)O)NC(=O)[C@@H]2CSSC[C@H](NC(=O)[C@@H](N)Cc3ccc(O)cc3)C(=O)N[C@@H](CCC(N)=O)C(=O)N[C@@H](CCCCN)C(=O)N[C@@H](Cc3c[nH]c4ccccc34)C(=O)N[C@@H](CCSC)C(=O)N[C@@H](Cc3c[nH]c4ccccc34)C(=O)N[C@@H]([C@@H](C)O)C(=O)N[C@H]3CSSC[C@H](NC(=O)[C@H](C(C)C)NC1=O)C(=O)N[C@@H](CCCNC(=N)N)C(=O)N[C@@H](CC(C)C)C(=O)N[C@@H](Cc1c[nH]c4ccccc14)C(=O)N[C@H](C(=O)N[C@@H](CCCCN)C(=O)N[C@@H](CCCCN)C(=O)N[C@@H](CCCCN)C(=O)N[C@@H](CC(C)C)C(=O)N[C@@H](Cc1c[nH]c4ccccc14)C(=O)O)CSSC[C@H](NC(=O)[C@H](CCCCN)NC(=O)[C@H](CCCNC(=N)N)NC(=O)[C@H](CCC(=O)O)NC(=O)[C@H](CO)NC(=O)[C@H](CC(=O)O)NC3=O)C(=O)N2", "tested on": "ND7/23", "assay": "peak TTX-sensitive sodium current", "setting": "0.001 µM, 1 peak", "quantity": "inhibition", "result": "5.6 ± 3.6%"}
{"Compound": "CC(=O)OC[C@]12[C@H](O)C(=O)C(C)=C[C@H]1O[C@@H]1[C@H](O)C[C@@]2(C)[C@]12CO2", "tested on": "HK-2", "assay": "cell growth or viability, SRB", "setting": "24 h", "quantity": "IC50", "result": "3770 nM"}
{"Compound": "O=C(NNC(=S)Nc1ccc(Cl)c(Cl)c1)c1ccccn1", "tested on": "Huh-7", "assay": "pseudovirus entry", "setting": "added: MERS-CoV spike pseudovirus", "quantity": "EC50", "result": "1100 nM"}
{"Compound": "C[C@@H]1Cc2ccc(C(=O)N[C@@H](Cc3ccccc3)C(=O)O)c(O)c2C(=O)O1", "tested on": "HK-2", "quantity": "IC50", "result": "38000 nM"}
{"Compound": "CCOc1cccc(NC(=O)CSc2cn(C(=O)OC(C)(C)C)c3ccccc23)c1", "tested on": "HEK293T", "assay": "Gaussia luciferase expression", "setting": "up to 10 µM, 24 h, without RdRp", "quantity": "reporter expression", "result": "no effect"}
{"Compound": "CCCCCCCCCCCCCCCC(=O)N[C@@H](CCC(=O)NCCCC[C@H](NC(=O)[C@H](CC(=O)O)NC(=O)[C@H](CO)NC(=O)[C@@H](NC(=O)[C@H](Cc1ccccc1)NC(=O)[C@@H](NC(=O)CNC(=O)[C@H](CCC(N)=O)NC(=O)[C@H](C)NC(=O)[C@@H](Cc1ccc(O)cc1)NC(C)=O)[C@@H](C)O)[C@@H](C)O)C(=O)N[C@@H](CO)C(=O)N[C@@H](CCCCN)C(=O)N[C@@H](Cc1ccc(O)cc1)C(=O)N[C@@H](CC(C)C)C(=O)N[C@@H](CC(=O)O)C(=O)N[C@@H](CCC(=O)O)C(=O)N[C@@H](CCCNC(=N)N)C(=O)N[C@@H](C)C(=O)N[C@@H](C)C(=O)N[C@@H](CCC(N)=O)C(=O)N[C@@H](CC(=O)O)C(=O)N[C@@H](Cc1ccccc1)C(=O)N[C@H](C(=O)N[C@@H](CCC(N)=O)C(=O)N[C@@H](Cc1c[nH]c2ccccc12)C(=O)N[C@@H](CC(C)C)C(=O)N[C@@H](CC(C)C)C(=O)N[C@@H](CCC(=O)O)C(=O)NCC(=O)NCC(=O)N1CCC[C@H]1C(=O)N[C@@H](CO)C(=O)N[C@@H](CO)C(=O)NCC(=O)N[C@@H](C)C(=O)N1CCC[C@H]1C(=O)N1CCC[C@H]1C(=O)N1CCC[C@H]1C(=O)N[C@@H](CO)C(N)=O)C(C)C)C(=O)O", "assay": "telemetry", "system": "conscious lean cynomolgus monkey", "setting": "subcutaneous, 30 and 100 µg/kg, 5 to 20 h post-dose", "quantity": "sustained heart rate increase", "result": "≤ 53 beats/min"}
{"Compound": "CC[C@H](C)[C@H](NC(=O)[C@H](CCCN)NC(=O)[C@H](CC(=O)O)NC(=O)[C@H](CC(C)C)NC(=O)C(C)(CC(C)C)NC(=O)[C@@H](NC(=O)[C@H](CO)NC(=O)[C@H](Cc1ccc(O)cc1)NC(=O)[C@H](CC(=O)O)NC(=O)[C@H](CO)NC(=O)[C@@H](NC(=O)[C@H](Cc1ccccc1)NC(=O)[C@@H](NC(=O)CNC(=O)[C@H](CCC(=O)O)NC(=O)C(C)(C)NC(=O)[C@@H](N)Cc1ccc(O)cc1)[C@@H](C)O)[C@@H](C)CC)[C@@H](C)CC)C(=O)N[C@@H](Cc1c[nH]cn1)C(=O)N[C@@H](CCC(N)=O)C(=O)NC(C)(C)C(=O)N[C@@H](CC(=O)O)C(=O)N[C@@H](Cc1ccccc1)C(=O)N[C@H](C(=O)N[C@@H](CCC(=O)O)C(=O)N[C@@H](Cc1ccc(O)cc1)C(=O)N[C@@H](CCCCNC(=O)COCCOCCNC(=O)COCCOCCNC(=O)CC[C@H](NC(=O)CCCCCCCCCCCCCCCCCCC(=O)O)C(=O)O)C(=O)N[C@@H](CC(C)C)C(=O)N[C@@H](CCC(=O)O)C(=O)NCC(=O)NCC(=O)N1CCC[C@H]1C(=O)N[C@@H](CO)C(=O)N[C@@H](CO)C(=O)NCC(=O)N[C@@H](C)C(=O)N1CCC[C@H]1C(=O)N1CCC[C@H]1C(=O)N1CCC[C@H]1C(=O)N[C@@H](CO)C(N)=O)C(C)C (stereo partly shown)", "tested on": "Glucagon-like peptide 1 receptor (GLP1R, Homo sapiens, UniProt P43220)", "assay": "cAMP accumulation, agonist", "system": "HEK293", "setting": "9.95 µM", "quantity": "stimulation", "result": "0.5 ± 0.3%"}
{"Compound": "CC(C)C[C@H](NC(=O)[C@H](CC(=O)O)NC(=O)[C@H](CCC(=O)O)NC(=O)[C@H](C)NC(=O)[C@H](CCC(=O)O)NC(=O)[C@H](Cc1c[nH]cn1)NC(=O)[C@H](CC(N)=O)NC(=O)[C@H](Cc1ccccc1)NC(=O)[C@H](Cc1ccccc1)NC(=O)[C@H](CC(=O)O)NC(=O)[C@H](CC(C)C)NC(=O)[C@H](Cc1ccccc1)NC(=O)[C@@H](N)[C@@H](C)O)C(=O)N[C@@H](Cc1ccccc1)C(=O)N[C@@H](Cc1ccc(O)cc1)C(=O)N[C@@H](CSCc1ccc(S(=O)(=O)F)cc1)C(=O)O", "tested on": "HEK293T-ACE2", "assay": "pseudovirus infection", "setting": "concentration not given", "quantity": "inhibition", "result": "100%"}
{"Compound": "CC1COC2(OC3CC4C5CC(OC6OC(C)C(O)C(OC7OC(C)C(O)C(O)C7O)C6O)C6CC(O)CCC6(C)C5CCC4(C)C3C2C)C(O)C1 (stereo not shown)", "tested on": "HEK293T", "assay": "entry of SARS-CoV-2 spike pseudotyped lentivirus", "setting": "10 µM", "quantity": "inhibition", "result": "50 to 90%"}
{"Compound": "O=C(CSc1[nH]c2ccccc2c1SCC(=O)Nc1ccc(Cl)c(Cl)c1)Nc1ccc(Cl)c(Cl)c1", "tested on": "HEK293T", "assay": "Gaussia luciferase expression", "setting": "up to 10 µM, 24 h, without RdRp", "quantity": "reporter expression", "result": "no effect"}
